Results pooled from the literature.
Values joined by “and” are separate records of one study, mostly repeats; a detail may differ. Numbers after ± are the reported error.

CCN1C(=CC=CC=CC2=[N+](CCCCCC(=O)NCCCC[C@H](NC(=O)CN3CCN(CC(=O)O)CCN(CC(=O)O)CCN(CC(=O)O)CC3)C(=O)NCC(=O)NCC(=O)N[C@@H](Cc3ccc(O)cc3)C(=O)NCC(=O)N[C@H]3CSSC[C@@H]4NC(=O)CNC(=O)[C@H](C)NC(=O)[C@H](CC(C)C)NC(=O)[C@@H]5CSSC[C@@H](C(=O)NCC(N)=O)NC(=O)[C@H](Cc6ccccc6)NC(=O)CNC(=O)[C@H](CC(N)=O)NC(=O)[C@@H]6CCCN6C(=O)CNC(=O)[C@H](CSSC[C@H](NC(=O)[C@H](CO)NC(=O)[C@H]([C@@H](C)O)NC(=O)[C@@H]6CCCN6C(=O)[C@H](C)NC(=O)[C@H](Cc6c[nH]c7ccccc67)NC(=O)[C@H](CC(=O)O)NC(=O)CNC(=O)[C@H](CCCNC(=N)N)NC(=O)CNC(=O)[C@H](CCC(N)=O)NC(=O)[C@@H]6CCCN6C3=O)C(=O)N[C@@H](CO)C(=O)N[C@@H](CCC(N)=O)C(=O)N[C@@H](CC(=O)O)C(=O)N[C@@H](CO)C(=O)N[C@@H](CC(=O)O)C(=O)N5)NC(=O)[C@H](C(C)C)NC4=O)c3ccc4c(S(=O)(=O)[O-])cc(S(=O)(=O)O)cc4c3C2(C)C)C(C)(C)c2c1ccc1c(S(=O)(=O)O)cc(S(=O)(=O)O)cc21 (single isomer, unassigned) [copper-64 labelled] — tumour uptake (microPET; athymic nude mouse, female, U-87 MG xenograft, tumour; intravenous, 1 to 24 h, together with: c(RGDyK) 0.5 µmol blocking): 1 to 1.5 %ID/g
COc1cccc2c1C(=O)c1c(O)c3c(c(O)c1C2=O)C[C@@](O)(C(=O)CO)C[C@@H]3O[C@H]1C[C@H](NC(=O)[C@@H]2CCCN2C(=O)CNC(=O)[C@H](CC(C)C)NC(=O)[C@H](C)NC(=O)CP(=O)(O)O)[C@H](O)[C@H](C)O1 — AUC (mouse, E0771 tumour-bearing, kidney; intravenous, 92 µmol/kg): 388 µM·h
CC(=O)N(O)CCCCCNC(=O)CCC(=O)N(O)CCCCCNC(=O)CCC(=O)N(O)CCCCCNC(=S)Nc1ccc(NC(=S)NCCOCCOCCOCCOCCC(=O)N[C@@H](CCC(=O)NCCOCCOCCOCCOCCC(=O)NCCCC[C@@H]2NC(=O)[C@@H](Cc3ccccc3)NC(=O)[C@H](CC(=O)O)NC(=O)CNC(=O)[C@H](CCCNC(=N)N)NC2=O)C(=O)NCCOCCOCCOCCOCCC(=O)NCCCC[C@@H]2NC(=O)[C@@H](Cc3ccccc3)NC(=O)[C@H](CC(=O)O)NC(=O)CNC(=O)[C@H](CCCNC(=N)N)NC2=O)cc1 [zirconium-89 labelled] — tissue uptake (athymic nude mice female tumour-bearing, kidneys; intravenous, 100 µCi, 4 h): 5.93 ± 0.93 %ID/g
CC(C)C[C@@H]1NC(=O)[C@@H]2CSSC[C@@H](C(=O)NCC(N)=O)NC(=O)[C@H](Cc3ccccc3)NC(=O)CNC(=O)[C@H](CC(N)=O)NC(=O)[C@@H]3CCCN3C(=O)CNC(=O)[C@@H]3CSSC[C@H](NC(=O)[C@H]([C@@H](C)O)NC(=O)[C@H](CC(C)C)NC(=O)[C@@H]4CCCN4C(=O)[C@@H]4CCCN4C(=O)[C@H](CC(N)=O)NC(=O)[C@H](CC(=O)O)NC(=O)CNC(=O)[C@H](CCCNC(=N)N)NC(=O)[C@@H]4CCCN4C(=O)[C@H](CCCNC(=N)N)NC(=O)[C@@H]4CCCN4C(=O)[C@@H](NC(=O)CNC(=O)CN4CCN(CC(=O)O)CCN(CC(=O)O)CCN(CC(=O)O)CC4)CSSC[C@H](NC(=O)CNC(=O)[C@H](C)NC1=O)C(=O)N[C@@H](C(C)C)C(=O)N3)C(=O)N[C@@H](CO)C(=O)N[C@@H](CCC(N)=O)C(=O)N[C@@H](CC(=O)O)C(=O)N[C@@H](CO)C(=O)N[C@@H](CC(=O)O)C(=O)N2 [copper-64 labelled] — tissue uptake (64Cu microPET; female nude mice, U-87 MG xenograft, tumour; intravenous, 1 h): 4.56 ± 0.64 %ID/g
KEAEAAEKAFQEAEQRRKEIEREKAETERQLKLAEAEEKRLAALSEEAKA (colicin E1 fragment 141–190) — helical content (CD 222/208 nm ratio; peptide, 50 mM sodium phosphate): 75 ± 2%
N=C(N)NCCC[C@@H]1NC(=O)[C@H](CCCCNC(=O)[C@H](CC(=O)O)NC(=O)[C@H](CC(=O)O)NC(=O)[C@H](CC(=O)O)NC(=O)CC[C@H](NC(=O)CCOCCOCCOCCOCCNC(=O)c2ccc(NN)nc2)C(=O)N[C@@H](CC(=O)O)C(=O)N[C@@H](CC(=O)O)C(=O)N[C@@H](CC(=O)O)C(=O)NCCCC[C@@H]2NC(=O)[C@@H](Cc3ccccc3)NC(=O)[C@H](CC(=O)O)NC(=O)CNC(=O)[C@H](CCCNC(=N)N)NC2=O)NC(=O)[C@@H](Cc2ccccc2)NC(=O)[C@H](CC(=O)O)NC(=O)CNC1=O [technetium-99m labelled] — tissue uptake (U-87 MG xenograft athymic nude mice, spleen; intravenous, 60 min, together with: RGD2 14 mg/kg co-injected): 0.14 ± 0.01 %ID/g
melittin — helical residues (circular dichroism; lipid membrane; 25 °C): 18 to 19 amino acids
COc1cccc2c1C(=O)c1c(O)c3c(c(O)c1C2=O)C[C@@](O)(C(=O)CO)C[C@@H]3O[C@H]1C[C@H](NC(=O)[C@H](CC(C)C)NC(=O)[C@H](C)NC(=O)[C@H](CC(C)C)NC(=O)CCNC(=O)CCC(=O)O)[C@H](O)[C@H](C)O1 — Tmax (mouse, E0771 tumour-bearing, heart; intravenous, 92 µmol/kg): 5 min
CC(C)C[C@@H]1NC(=O)[C@@H]2CSSC[C@@H](C(=O)NCC(N)=O)NC(=O)[C@H](Cc3ccccc3)NC(=O)CNC(=O)[C@H](CC(N)=O)NC(=O)[C@@H]3CCCN3C(=O)CNC(=O)[C@@H]3CSSC[C@H](NC(=O)[C@H]([C@@H](C)O)NC(=O)[C@H](CC(C)C)NC(=O)[C@@H]4CCCN4C(=O)[C@@H]4CCCN4C(=O)[C@H](CC(N)=O)NC(=O)[C@H](CC(=O)O)NC(=O)CNC(=O)[C@H](CCCNC(=N)N)NC(=O)[C@@H]4CCCN4C(=O)[C@H](CCCNC(=N)N)NC(=O)[C@@H]4CCCN4C(=O)[C@@H](NC(=O)CNC(=O)CN4CCN(CC(=O)O)CCN(CC(=O)O)CCN(CC(=O)O)CC4)CSSC[C@H](NC(=O)CNC(=O)[C@H](C)NC1=O)C(=O)N[C@@H](C(C)C)C(=O)N3)C(=O)N[C@@H](CO)C(=O)N[C@@H](CCC(N)=O)C(=O)N[C@@H](CC(=O)O)C(=O)N[C@@H](CO)C(=O)N[C@@H](CC(=O)O)C(=O)N2 [copper-64 labelled] — tumour uptake (PET/CT; transgenic mouse lung tumour, lung tumour; intravenous, 60 min): 1.38 %ID/g and 1.3 %ID/g and 1.99 %ID/g and 1.75 %ID/g
COc1cccc2c1C(=O)c1c(O)c3c(c(O)c1C2=O)C[C@@](O)(C(=O)CO)C[C@@H]3O[C@H]1C[C@H](NC(=O)CCC(=O)N[C@H]2CSSC[C@@H](C(=O)O)NC(=O)[C@H](C(C)C)NC(=O)[C@H](CO)NC(=O)CNC(=O)CNC(=O)[C@H](CCCNC(=N)N)NC(=O)[C@@H]3CCCN3C2=O)[C@H](O)[C@H](C)O1 — distribution coefficient (shake flask; n-octanol/PBS; 2.0 µM, pH 7.4): 4.3
Cc1ccccc1NC(=O)Nc1ccc(CC(=O)N[C@@H](CCCCNC(=O)/C=C/c2cccnc2)C(=O)N[C@@H](CCCC(=O)O)C(=O)NC2(C(=O)NCCOCCOCCOCCOCC(=O)N[C@@H](CCCCNC(=S)Nc3ccc(C[C@H]4CN(CC(=O)O)CCN(CC(=O)O)CCN4CC(=O)O)cc3)C(N)=O)CCCCC2)cc1 [fluorine-18 labelled] — tumour-to-blood ratio (female C57BL/6 mice, B16-F10 tumour, tumour and blood; intravenous, 1 h; relative to: tumour over blood): 2.5 ± 0.4
CSCC[C@H](NC(=O)[C@H](CC(C)C)NC(=O)[C@H](Cc1cnc[nH]1)NC(=O)CNC(=O)[C@@H](NC(=O)[C@H](C)NC(=O)[C@H](Cc1c[nH]c2ccccc12)NC(=O)[C@H](CCC(N)=O)NC(=O)CCCCCCCNC(=O)CN1CCN(CC(=O)O)CCN(CC(=O)O)CCN(CC(=O)O)CC1)C(C)C)C(N)=O — excreted dose (ICR SCID mouse (PC-3 tumour), urine and bladder contents; intravenous, 185 kBq, 1 h): 72.5 ± 0.96%
N=C(N)NCCC[C@@H]1NC(=O)[C@H](CCCCNC(=O)CNC(=O)CNC(=O)CNC(=O)CC[C@H](NC(=O)CCOCCOCCOCCOCCNC(=O)c2ccc(NN)nc2)C(=O)NCC(=O)NCC(=O)NCC(=O)NCCCC[C@@H]2NC(=O)[C@@H](Cc3ccccc3)NC(=O)[C@H](CC(=O)O)NC(=O)CNC(=O)[C@H](CCCNC(=N)N)NC2=O)NC(=O)[C@@H](Cc2ccccc2)NC(=O)[C@H](CC(=O)O)NC(=O)CNC1=O [technetium-99m labelled] — tissue uptake (γ-counting; female athymic nude mice, U-87 MG xenograft, blood; intravenous, 1 h): 0.56 ± 0.13 %ID/g

Some of these lines once more:
CC(C)C[C@@H]1NC(=O)[C@@H]2CSSC[C@@H](C(=O)NCC(N)=O)NC(=O)[C@H](Cc3ccccc3)NC(=O)CNC(=O)[C@H](CC(N)=O)NC(=O)[C@@H]3CCCN3C(=O)CNC(=O)[C@@H]3CSSC[C@H](NC(=O)[C@H]([C@@H](C)O)NC(=O)[C@H](CC(C)C)NC(=O)[C@@H]4CCCN4C(=O)[C@@H]4CCCN4C(=O)[C@H](CC(N)=O)NC(=O)[C@H](CC(=O)O)NC(=O)CNC(=O)[C@H](CCCNC(=N)N)NC(=O)[C@@H]4CCCN4C(=O)[C@H](CCCNC(=N)N)NC(=O)[C@@H]4CCCN4C(=O)[C@@H](NC(=O)CNC(=O)CN4CCN(CC(=O)O)CCN(CC(=O)O)CCN(CC(=O)O)CC4)CSSC[C@H](NC(=O)CNC(=O)[C@H](C)NC1=O)C(=O)N[C@@H](C(C)C)C(=O)N3)C(=O)N[C@@H](CO)C(=O)N[C@@H](CCC(N)=O)C(=O)N[C@@H](CC(=O)O)C(=O)N[C@@H](CO)C(=O)N[C@@H](CC(=O)O)C(=O)N2 [copper-64 labelled] — tissue uptake (64Cu microPET; female nude mice, U-87 MG xenograft, tumour; intravenous, 1 h): 4.56 ± 0.64 %ID/g
Cc1ccccc1NC(=O)Nc1ccc(CC(=O)N[C@@H](CCCCNC(=O)/C=C/c2cccnc2)C(=O)N[C@@H](CCCC(=O)O)C(=O)NC2(C(=O)NCCOCCOCCOCCOCC(=O)N[C@@H](CCCCNC(=S)Nc3ccc(C[C@H]4CN(CC(=O)O)CCN(CC(=O)O)CCN4CC(=O)O)cc3)C(N)=O)CCCCC2)cc1 [fluorine-18 labelled] — tumour-to-blood ratio (female C57BL/6 mice, B16-F10 tumour, tumour and blood; intravenous, 1 h; relative to: tumour over blood): 2.5 ± 0.4
